Values quoted from earlier work that unrelated publications cite.
Compare with care: the assays were run in different laboratories. Numbers after ± are the reported error.
Chain of UniProt Q92918 (whole entry, looked up): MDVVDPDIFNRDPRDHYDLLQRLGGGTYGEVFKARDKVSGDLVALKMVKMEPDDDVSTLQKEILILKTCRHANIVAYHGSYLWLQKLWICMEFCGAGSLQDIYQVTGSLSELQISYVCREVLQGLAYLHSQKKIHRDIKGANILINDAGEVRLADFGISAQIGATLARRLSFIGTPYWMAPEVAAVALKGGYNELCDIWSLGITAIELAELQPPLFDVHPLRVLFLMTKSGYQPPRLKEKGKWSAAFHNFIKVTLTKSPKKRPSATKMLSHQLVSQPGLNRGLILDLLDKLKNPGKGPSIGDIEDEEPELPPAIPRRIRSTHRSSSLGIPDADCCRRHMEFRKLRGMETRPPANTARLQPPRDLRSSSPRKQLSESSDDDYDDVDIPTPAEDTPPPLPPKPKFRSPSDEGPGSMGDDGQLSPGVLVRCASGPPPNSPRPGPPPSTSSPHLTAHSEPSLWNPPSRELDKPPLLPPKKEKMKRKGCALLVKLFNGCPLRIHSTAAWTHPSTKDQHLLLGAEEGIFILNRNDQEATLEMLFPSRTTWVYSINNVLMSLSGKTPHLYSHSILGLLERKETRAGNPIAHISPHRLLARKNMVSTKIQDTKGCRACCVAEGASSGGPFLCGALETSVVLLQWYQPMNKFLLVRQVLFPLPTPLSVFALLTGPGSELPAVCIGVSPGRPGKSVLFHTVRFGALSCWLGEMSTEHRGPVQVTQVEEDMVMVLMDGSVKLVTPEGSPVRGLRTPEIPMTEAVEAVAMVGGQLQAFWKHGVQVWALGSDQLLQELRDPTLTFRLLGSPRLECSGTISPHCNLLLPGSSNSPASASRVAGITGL

SMILES = CC1(C)S[C@@H]2[C@H](NC(=O)[C@H](N)c3ccccc3)C(=O)N2[C@H]1C(=O)O; target or system = Enterobacter cloacae; test system = clinical isolate RKI-No_460/16; quantity = MIC; result = > 16 µg/mL
SMILES = Cc1cn([C@@H]2C[C@@H](O)[C@H](CO)O2)c(=O)[nH]c1=O; test system = woodchuck; conditions = dose not given; quantity = oral bioavailability; result = 39%
SMILES = CC[C@H](CO)N(CCN(N=O)[C@H](CC)CO)N=O; target or system = Salmonella typhimurium; test system = TA98 and TA100; conditions = concentration not given, pre-incubation, with or without rat S9; quantity = Ames test result; result = negative
SMILES = O=C(CCCN1CC=C(n2c(=O)[nH]c3ccccc32)CC1)c1ccc(F)cc1; target or system = HepG2; assay = mitochondrial membrane potential; conditions = concentration not given, Tox21; quantity = activity outcome; result = inactive
SMILES = N#C[C@@]1(c2ccc3c(N)ncnn23)O[C@H](CO)[C@@H](O)[C@H]1O; test system = dog, plasma; conditions = intravenous, 2 mg/kg, 8 h, solution; quantity = plasma concentration; result = 198 ng/mL
SMILES = COc1cc2nccc(Oc3ccc(NC(=O)C4(C(=O)Nc5ccc(F)cc5)CC4)cc3)c2cc1OC; target or system = HepG2; assay = mitochondrial membrane potential; conditions = concentration not given, Tox21; quantity = activity outcome; result = inactive
SMILES = CO[C@@H](C)Cn1c(=O)n(C)c2cnc3ccc(-c4cncc(C(C)(C)O)c4)cc3c21; assay = item: grade ≥3 asthenia; test system = cancer patients; conditions = dose not given, monotherapy; quantity = patients with related adverse event; result = 2.1%
SMILES = CN(C)C(=O)c1cc2cnc(Nc3ccc(N4CCNCC4)cn3)nc2n1C1CCCC1; test system = healthy human; conditions = oral, 600 mg, added: high-fat high-calorie meal; how to read = relative to: fasted; quantity = decrease in Cmax; result = 23%
SMILES = CS(=O)(=O)c1ccc(C(=O)Nc2ccc(Cl)c(-c3ccccn3)c2)c(Cl)c1; target or system = HepG2; assay = mitochondrial membrane potential; conditions = concentration not given, Tox21; quantity = activity outcome; result = inactive
SMILES = Nc1cc(C(F)(F)F)c(-c2nc(N3CCOCC3)nc(N3CCOCC3)n2)cn1; target or system = MAP4K1 (Homo sapiens, UniProt Q92918); assay = enzyme activity; conditions = 10 µM; how to read = relative to: untreated; quantity = remaining activity; result = 66%
SMILES = Cc1ccc(C)c(OCCCC(C)(C)C(=O)O)c1; target or system = OATP1B1; how to read = literature minimum; quantity = IC50; result = 4 µM
SMILES = Cn1ncnc1[C@H]1c2n[nH]c(=O)c3cc(F)cc(c23)N[C@@H]1c1ccc(F)cc1; target or system = HepG2; assay = mitochondrial membrane potential; conditions = concentration not given, Tox21; quantity = activity outcome; result = inactive
SMILES = Nc1ccccc1NC(=O)c1ccc(CNC(=O)OCc2cccnc2)cc1; target or system = HL-60; assay = cell viability, MTT; quantity = IC50; result = 0.939 ± 0.059 µM
SMILES = CC(C)(O/N=C(\C(=O)N[C@@H]1C(=O)N2C(C(=O)[O-])=C(C[n+]3ccccc3)CS[C@H]12)c1csc(N)n1)C(=O)O; target or system = Escherichia coli; test system = clinical isolate RKI 131/08; quantity = MIC; result = ≤ 2 µg/mL
SMILES = C=C[C@@H]1C[C@]1(NC(=O)[C@@H]1C[C@@H]2CN1C(=O)[C@H](C(C)(C)C)NC(=O)O[C@@H]1C[C@H]1CCCCCc1nc3ccc(OC)cc3nc1O2)C(=O)NS(=O)(=O)C1CC1; target or system = human MRP2; assay = uptake, inhibitor; test system = membrane vesicles; conditions = added: ethacrynic acid glutathione conjugate; quantity = IC50; result = 2.5 µM
SMILES = Cc1cc(-c2nccc3c2ccn3CC(=O)Nc2ccc(-c3cnccn3)cn2)ccn1; test system = rat; conditions = oral, up to 200 mg/kg; quantity = nervous function, body weight, body temperature; result = no effect
SMILES = CNCc1cn(S(=O)(=O)c2cccc(F)c2)c(-c2ccc(F)cc2F)c1OC; target or system = CYP2A6; assay = enzyme activity; quantity = IC50; result = > 50 µM
SMILES = O=C(NCCN1CCOCC1)c1ccc(Cl)cc1; target or system = HepG2; assay = mitochondrial membrane potential; conditions = concentration not given, Tox21; quantity = activity outcome; result = inactive
SMILES = C[Si]1(C)O[Si](C)(C)O[Si](C)(C)O[Si](C)(C)O1; target or system = Poecilia reticulata; conditions = concentration not given; quantity = bioconcentration factor; result = 1090 L/kg wet weight
SMILES = CC(O)c1cc(C(=O)N[C@@H](C)Cn2ccc(-c3ccc(C#N)c(Cl)c3)n2)[nH]n1 (stereo partly drawn); target or system = OATP1B3 (SLCO1B3) OATP1B1; conditions = literature geometric mean; quantity = IC50; result = 7.99 µM
SMILES = CCC(C)n1ncn(-c2ccc(N3CCN(c4ccc(OCC5COC(Cn6cncn6)(c6ccc(Cl)cc6Cl)O5)cc4)CC3)cc2)c1=O (stereo not drawn); target or system = HepG2; assay = mitochondrial membrane potential; conditions = concentration not given, Tox21; quantity = activity outcome; result = inactive
SMILES = COC[C@H]1C[C@@H](c2ncc(-c3ccc4c(c3)COc3cc5c(ccc6nc([C@@H]7CC[C@H](C)N7C(=O)[C@@H](NC(=O)OC)C(C)C)[nH]c65)cc3-4)[nH]2)N(C(=O)[C@H](NC(=O)OC)c2ccccc2)C1; target or system = OATP1B3; how to read = literature maximum; quantity = IC50; result = 0.682 µM
SMILES = O=C1Cc2cc(CCN3CCN(c4nsc5ccccc45)CC3)c(Cl)cc2N1; target or system = HepG2; assay = mitochondrial membrane potential; conditions = concentration not given, Tox21; quantity = activity outcome; result = inactive
SMILES = COc1cc2c(Oc3ccc4[nH]c(C)cc4c3F)ccnc2cc1OCC1(N)CC1; test system = human; conditions = 12 mg/day, two cycles; quantity = AUC(0-42 days); result = 1470 ± 395 ng·h/mL
